Experimental data collected from several papers.
Compare with care: the assays were run in different laboratories. Several values in a cell are separate wells, animals, samples, runs or records. ± marks the error that the study gave.
WD repeat-containing protein 91 WD40 domain, residues 392–747: WD repeat-containing protein 91, WD40 domain, residues 392–747 (Homo sapiens, UniProt A4D1P6)
UniProt A4D1P6, sequence (whole entry, looked up): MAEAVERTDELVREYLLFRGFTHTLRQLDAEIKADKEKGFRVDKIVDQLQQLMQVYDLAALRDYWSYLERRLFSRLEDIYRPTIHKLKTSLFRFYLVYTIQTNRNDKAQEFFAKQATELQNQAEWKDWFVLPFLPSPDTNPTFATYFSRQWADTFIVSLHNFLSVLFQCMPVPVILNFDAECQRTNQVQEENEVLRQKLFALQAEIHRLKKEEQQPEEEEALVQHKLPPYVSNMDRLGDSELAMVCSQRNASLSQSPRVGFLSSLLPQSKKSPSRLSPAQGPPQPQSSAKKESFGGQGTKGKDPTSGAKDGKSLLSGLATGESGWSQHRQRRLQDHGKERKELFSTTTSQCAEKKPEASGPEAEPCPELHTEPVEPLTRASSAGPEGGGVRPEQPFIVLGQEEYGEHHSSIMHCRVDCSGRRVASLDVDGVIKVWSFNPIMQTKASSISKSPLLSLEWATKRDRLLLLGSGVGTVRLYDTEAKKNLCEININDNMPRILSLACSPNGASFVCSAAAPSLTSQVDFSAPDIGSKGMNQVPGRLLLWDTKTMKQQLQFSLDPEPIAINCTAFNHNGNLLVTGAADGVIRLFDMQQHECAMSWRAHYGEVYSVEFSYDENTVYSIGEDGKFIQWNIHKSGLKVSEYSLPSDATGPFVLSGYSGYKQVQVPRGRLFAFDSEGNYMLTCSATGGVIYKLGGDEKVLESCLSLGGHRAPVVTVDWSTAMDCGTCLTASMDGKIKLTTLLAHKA
Genome polyprotein NS3 helicase domain: Genome polyprotein, NS3 helicase domain (Hepatitis C virus genotype 1b, UniProt Q9WMX2)
Glutamate receptor 2: Glutamate receptor 2 (Homo sapiens, UniProt P42262)
UniProt O76090, sequence (whole entry, unmodified, looked up): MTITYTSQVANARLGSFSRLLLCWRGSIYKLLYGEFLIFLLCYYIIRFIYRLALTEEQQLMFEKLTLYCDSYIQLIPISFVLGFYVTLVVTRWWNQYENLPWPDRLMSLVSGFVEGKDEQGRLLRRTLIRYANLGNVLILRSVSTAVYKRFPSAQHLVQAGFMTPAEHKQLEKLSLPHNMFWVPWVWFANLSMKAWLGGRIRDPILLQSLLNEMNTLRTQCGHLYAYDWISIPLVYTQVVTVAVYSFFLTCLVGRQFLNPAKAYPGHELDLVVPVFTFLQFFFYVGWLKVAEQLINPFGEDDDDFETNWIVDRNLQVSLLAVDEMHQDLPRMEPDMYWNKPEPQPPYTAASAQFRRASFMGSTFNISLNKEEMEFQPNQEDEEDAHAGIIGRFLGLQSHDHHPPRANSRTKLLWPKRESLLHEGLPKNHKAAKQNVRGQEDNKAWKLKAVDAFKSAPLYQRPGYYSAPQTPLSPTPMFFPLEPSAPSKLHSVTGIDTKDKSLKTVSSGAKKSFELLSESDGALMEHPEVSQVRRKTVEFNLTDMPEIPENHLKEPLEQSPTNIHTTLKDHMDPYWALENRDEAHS
UniProt Q16774, sequence (whole entry, unmodified, looked up): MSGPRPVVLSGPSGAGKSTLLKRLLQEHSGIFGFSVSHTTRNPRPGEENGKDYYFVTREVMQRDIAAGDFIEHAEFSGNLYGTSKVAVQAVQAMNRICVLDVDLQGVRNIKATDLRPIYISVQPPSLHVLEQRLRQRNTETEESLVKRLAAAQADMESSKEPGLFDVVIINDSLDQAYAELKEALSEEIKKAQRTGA
UniProt P51575, sequence (whole entry, unmodified, looked up): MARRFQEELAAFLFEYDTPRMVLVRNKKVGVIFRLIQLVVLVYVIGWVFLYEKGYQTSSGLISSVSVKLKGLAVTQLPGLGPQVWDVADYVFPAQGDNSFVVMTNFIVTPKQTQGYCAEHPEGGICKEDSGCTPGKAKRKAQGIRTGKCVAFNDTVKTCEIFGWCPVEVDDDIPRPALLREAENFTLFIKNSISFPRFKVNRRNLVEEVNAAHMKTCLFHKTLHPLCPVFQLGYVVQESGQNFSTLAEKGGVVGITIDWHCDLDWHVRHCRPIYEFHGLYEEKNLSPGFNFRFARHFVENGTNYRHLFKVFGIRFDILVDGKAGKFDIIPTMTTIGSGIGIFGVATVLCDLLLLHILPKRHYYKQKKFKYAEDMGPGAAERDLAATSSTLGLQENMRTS

Nc1ncnc2c1ncn2[C@@H]1O[C@H](C[C@@H](N)CC[C@H](N)C(=O)O)[C@@H](O)[C@H]1O
ΔH of binding (O-methyltransferase (Sorghum bicolor, UniProt A0A1B6PFV1); concentration not given, together with: RSV+): -3.17 ± 0.119 kcal/mol

O=c1cc(-c2ccc(O)cc2)oc2cccc(O)c12
selectivity ratio (Estrogen receptor (ESR1, Homo sapiens, UniProt P03372); array formation; PRL-HeLa; baseline: EC50 ERβ over EC50 ERα): 0.5

O=C(COP(=O)(O)O)[C@@H](O)[C@H](O)[C@H](O)COP(=O)(O)O
thermal stability ratio (Erlin-1 (Homo sapiens, UniProt O75477); thermal proteome profiling; HepG2 cell lysate; concentration not given, 57 over 37 °C, mean; baseline: compound over control): 4.39

CC[C@H](C)[C@H](NC(=O)[C@H](CCCCN)NC(=O)CNC(=O)[C@@H](NC(=O)[C@@H](NC(=O)[C@H](CCSC)NC(=O)[C@H](Cc1c[nH]cn1)NC(=O)CN)[C@@H](C)O)C(C)C)C(=O)N[C@@H](Cc1ccc(O)cc1)C(=O)N[C@@H](C)C(=O)N[C@@H](C)C(=O)N[C@@H](CCSC)C(=O)N[C@@H](CCSC)C(=O)N[C@H](C(=O)N[C@@H](CCSC)C(=O)N[C@@H](CCC(=O)O)C(=O)N[C@@H](Cc1ccc(O)cc1)C(=O)N[C@@H](C)C(=O)N[C@@H](CCCNC(=N)N)C(=O)N[C@@H](CCC(N)=O)C(=O)N[C@@H](CO)C(=O)N[C@@H](CCCCN)C(=O)N[C@@H](C)C(=O)N[C@@H](CCCCN)C(=O)N[C@@H](CCCCN)C(=O)N[C@@H](CC(C)C)C(=O)N[C@@H](CCC(N)=O)C(=O)N[C@@H](C)C(=O)N[C@@H](CCSC)C(=O)N[C@@H](CCCNC(=N)N)C(=O)O)[C@@H](C)CC
ΔΔG (Calmodulin-1, Ca2+-bound N-lobe (CALM1, Homo sapiens, UniProt P0DP23); binding, isothermal titration calorimetry; N-lobe, CaV2.1 IQ domain, unit not given, together with: Ca2+; baseline: wild-type IQ domain): 0.46

O=c1nc(SCc2cc(F)cc(C(F)(F)F)c2)nc(SCc2ccc3sccc3c2)[nH]1
mean relaxed DNA (DNA topoisomerase 2-alpha (TOP2A, Homo sapiens, UniProt P11388); DNA relaxation; 7.8 µM): 98.7%

Cc1cc(NC(=O)c2cccc(NC(=O)/C=C/CN(C)C)c2)ccc1Nc1nccc(-c2cccnc2)n1
remaining activity (Mitogen-activated protein kinase 9 (MAPK9, Homo sapiens, UniProt P45984); enzyme activity, inhibitor; 0.0007527 µM, unit not given; baseline: vehicle): 0.959

COC(=O)CCc1ccc(C(=O)N/N=C/C(Br)=C/c2ccccc2)cc1
enzyme activity (Histone deacetylase 3 (HDAC3, Homo sapiens, UniProt O15379); inhibitor, fluorogenic; 5 and 10 µM; baseline: SAHA): no effect

CCN(CC)Cc1cn(Cc2ccc(C(=O)N[C@@H]3CCc4c(C#N)cccc43)cc2)nn1
binding (WD repeat-containing protein 91 WD40 domain, residues 392–747; SPR; 45 µM): 123% and 129%

NC(=O)NCCC[C@H](N)C(=O)O
product formation (N-alpha-acetyltransferase 80 (NAA80, Homo sapiens, UniProt Q93015); substrate, DTNB; 2 mM, 30 min, 37 °C, together with: acetyl-CoA 500 µM): -0.48 µM

CCN(CC)C(=S)S
activity (Tyrosine-protein phosphatase non-receptor type 12 (PTPN12, Homo sapiens, UniProt Q05209); enzyme activity; concentration not given, together with: DiFMUP): inactive

O=C1NC(=O)/C(=C\c2ccc3nccnc3c2)S1
inhibition (Genome polyprotein NS3 helicase domain; DNA binding, inhibitor; hepatitis C virus; 100 µM, together with: Cy5-dT15 DNA): 0%

CC[C@@H]1[C@H](F)C(=O)N[C@@H]1COc1nccc2cc(C(N)=O)c(OC)cc12
inhibition (Calcium/calmodulin-dependent protein kinase type II subunit delta (CAMK2D, Homo sapiens, UniProt Q13557); ATP-site probe binding, ActivX profiling; THP-1 cell lysate; 0.2 mM, Lys1 site): 16.3%

CN(C)C/C=C(/c1ccc(Br)cc1)c1cccnc1
inhibition (Genome polyprotein NS3 helicase domain; DNA binding, inhibitor; hepatitis C virus; 100 µM, together with: Cy5-dT15 DNA): 1%

CC12CC3CC(C)(C1)CC(N)(C3)C2
activation (Glutamate receptor 2; ion current, agonist, SyncroPatch patch clamp; HEK293; 10 µM): 3%

CCCCSC[C@H]1CN(Cc2c[nH]c3c(N)ncnc23)C[C@@H]1O
k4 (Aminodeoxyfutalosine nucleosidase (Helicobacter pylori, UniProt Q9ZMY2); radiolabel chase ultrafiltration; pH 7.4, inhibitor off-rate): 0.015 min⁻¹

CCCCC[S+]([O-])c1n[nH]c(N)n1 (centres unmarked)
fold enrichment (Transducin-like enhancer protein 4 (TLE4, Homo sapiens, UniProt Q04727); binding, affinity selection mass spectrometry; baseline: other proteins in batch): 0.874

CC(=O)N[C@H](C(=O)N[C@@H](CC(N)=O)C(=O)N[C@@H](CCCCN)C(=O)N1CCC[C@H]1C(=O)N[C@@H](CC(C)C)C(=O)N1CCC[C@H]1C(=O)N1CCC[C@H]1C(=O)N[C@@H](CC(C)C)C(=O)N1CCC[C@H]1C(=O)N[C@H](C(=O)N[C@@H](C)C(N)=O)C(C)C)C(C)C
peak area (Tyrosine-protein kinase Fyn, SH3 domain (FYN, Homo sapiens, UniProt P06241); ligand binding, FTIR spectroscopy, item: asymmetric stretch band A; pH 7.0, FYN complex, together with: 4 mM peptide): 12 ± 0.3%

COc1cc(/C=C/C(=O)/C=C/c2ccc(O)c(OC)c2)ccc1O
ΔG (haemin; binding, isothermal titration calorimetry; pH 7.4, 37 °C): -8.84 ± 0.263 kcal/mol

Cn1c(=O)c2[nH]cnc2n(C)c1=O
activation (Glutamate receptor 2; ion current, agonist, SyncroPatch patch clamp; HEK293; 3 µM): 2%

CN1C(=O)C(c2c(-c3ccc(Cl)cc3)[nH]c3c2c(=O)[nH]c(=O)n3C)c2ccccc21 (centres unmarked)
SPR response (WD repeat-containing protein 91 (Homo sapiens, UniProt A4D1P6); binding, SPR steady state; 3.75 µM): 22.2 RU

N#Cc1ccc(Nc2cccc(C(=O)NC3CCc4cc(F)ccc43)c2)cc1 (centres unmarked)
SPR response (WD repeat-containing protein 91 WD40 domain, residues 392–747; binding, SPR single-concentration screen; 45 µM): 27.4 RU and 35.9 RU

CC1=CC(=O)c2ccccc2C1=O
kcat (ancestral FSP1; oxidoreductase activity, substrate; together with: co-substrate 100 µM fixed): 8.86 ± 0.45 s⁻¹

C1COC(NC(C2CC2)C2CC2)=N1
inhibition (Genome polyprotein NS3 helicase domain; DNA binding, inhibitor; hepatitis C virus; 100 µM, together with: Cy5-dT15 DNA): 0%

CC(=O)c1cccc(OCc2cn(-c3ccc(C(=O)N4CCC(C#N)CC4)cc3)nn2)c1
binding (WD repeat-containing protein 91 WD40 domain, residues 392–747; SPR; 45 µM): 46% and 61%

Nc1nc2c(ncn2[C@@H]2O[C@H](COP(=O)(O)O)[C@@H](O)[C@H]2O)c(=O)[nH]1
reaction rate (GUK1 (Homo sapiens, UniProt Q16774, D103A); enzyme activity, NADH-coupled; 62.5 µM): 7.26 s⁻¹ and 7.7 s⁻¹ and 6.87 s⁻¹

Nc1ccc(C(=O)O)cc1
current density (BEST1, with wild-type BEST1 (Homo sapiens, UniProt O76090, A243T); whole-cell patch clamp; HEK293 co-expressing WT and A243T mutant; concentration not given, membrane potential 40 mV): 3.71 pA/pF and 3.77 pA/pF and 11.9 pA/pF and 11.3 pA/pF and 11.8 pA/pF and 9.33 pA/pF and 14.6 pA/pF

CC1=C(/C=C/C(C)=C/C=C/C(C)=C\C(=O)O)C(C)(C)CCC1
inhibition (Genome polyprotein NS3 helicase domain; DNA binding, inhibitor; hepatitis C virus; 100 µM, together with: Cy5-dT15 DNA): 1%

O=C(O)C1CCCNC1 (centres unmarked)
normalised MST signal (Sodium- and chloride-dependent taurine transporter (SLC6A6, Homo sapiens, UniProt P31641, Y138A); binding, microscale thermophoresis; 3.91 µM, room temperature, together with: 50 nM labelled protein; higher = more binding): 0.218

Nc1ncnc2c1ncn2[C@@H]1O[C@H](COP(=O)(O)CP(=O)(O)OP(=O)(O)O)[C@@H](O)[C@H]1O
calcium influx (P2X purinoceptor 1 (P2RX1, Homo sapiens, UniProt P51575, M214A); calcium influx; 316 nM; baseline: ionomycin response): 10.7% and 18.2% and 13.9% and 16.1%

CC[C@@H](C)[C@@H](NC(=O)[C@@H](Cc1ccc(O)cc1)NC(=O)[C@H]1CCCN1C(=O)[C@@H](CCCNC(=N)N)NC(=O)[C@H](N)Cc1c[nH]cn1)C(=O)N[C@H](C)C(=O)N[C@H](Cc1c[nH]cn1)C(=O)N[C@H](CCCNC(=N)N)C(=O)N[C@@H](C(=O)N[C@H](Cc1ccc(O)cc1)C(=O)N[C@H](CO)C(=O)N[C@H](Cc1ccccc1)C(N)=O)C(C)C
surface expression (Transferrin receptor protein 1 (Tfrc, Mus musculus, UniProt Q62351); flow cytometry; DC2.4; 6 h, pH 7.4, unit not given; baseline: 0 h): 0.85 and 0.864

Nc1ncnc2c1ncn2[C@@H]1O[C@H](COP(=O)(O)OP(=O)(O)OP(=O)(O)O)[C@@H](O)[C@H]1O
normalized current (P2X purinoceptor 7 (P2rx7, Rattus norvegicus, UniProt Q64663, I214A/Q143A/R125A); ion current, agonist, two-electrode voltage clamp; Xenopus oocytes; 11.1 µM): 0 and 0.0187

Cl.N[C@@H](Cc1cnc[nH]1)C(=O)O
inhibition (Genome polyprotein NS3 helicase domain; DNA binding, inhibitor; hepatitis C virus; 100 µM, together with: Cy5-dT15 DNA): 0%

Some of these lines once more:
O=c1nc(SCc2cc(F)cc(C(F)(F)F)c2)nc(SCc2ccc3sccc3c2)[nH]1
mean relaxed DNA (DNA topoisomerase 2-alpha (TOP2A, Homo sapiens, UniProt P11388); DNA relaxation; 7.8 µM): 98.7%

O=C1NC(=O)/C(=C\c2ccc3nccnc3c2)S1
inhibition (Genome polyprotein NS3 helicase domain; DNA binding, inhibitor; hepatitis C virus; 100 µM, together with: Cy5-dT15 DNA): 0%

CC(=O)c1cccc(OCc2cn(-c3ccc(C(=O)N4CCC(C#N)CC4)cc3)nn2)c1
binding (WD repeat-containing protein 91 WD40 domain, residues 392–747; SPR; 45 µM): 46% and 61%
